Measured values from different studies.
Each line is one published result; not all experiments were run side by side. Several values in a cell are separate wells, animals, samples, runs or records.
Method: steady-state kinetics
B1: FMO1 I303V (Homo sapiens, UniProt Q01740); chain AKRVAIVGAGVSGLASIKCCLEEGLEPTCFERSDDLGGLWRFTEHVEEGRASLYKSVVSNSCKEMSCYSDFPFPEDYPNYVPNSQFLEYLKMYANHFDLLKHIQFKTKVCSVTKCSDSAVSGQWEVVTMHEEKQESAIFDAVMVCTGFLTNPYLPLDSFPGINAFKGQYFHSRQYKHPDIFKDKRVLVIGMGNSGTDIAVEASHLAEKVFLSTTGGGWVISRIFDSGYPWDMVFMTRFQNMLRNSLPTPIVTWLMERKINNWLNHANYGLIPEDRTQLKEFVLNDELPGRIITGKVFIRPSVKEVKENSVIFNNTSKEEPIDIIVFATGYTFAFPFLDESVVKVEDGQASLYKYIFPAHLQKPTLAIIGLIKPLGSMIPTGETQARWAVRVLKGVNKLPPPSVMIEEINARKENKPSWFGLCYCKALQSDYITYIDELLTYINAKPNLFSMLLTDPHLALTVFFGPCSPYQFRLTGPGKWEGARNAIMTQWDRTFKVIKARVVQESPSPFESFLKVFSFLALLVAIFLIFL
B2: enzyme D382A (Arabidopsis thaliana, UniProt O82390); chain MNARALLCSSNIHSLYTSNRPPEKTSSSRSLRNLKPSPKSLRVWIYPRNRSSVFRVLVRSSDKSESSNSYYVEGDKVSGNNDVVSDSPSSIVLPWWEEFPKRWVIVLLCFSAFLLCNMDRVNMSIAILPMSAEYGWNPATVGLIQSSFFWGYLLTQIAGGIWADTVGGKRVLGFGVIWWSIATILTPVAAKLGLPYLLVVRAFMGVGEGVAMPAMNNILSKWVPVQERSRSLALVYSGMYLGSVTGLAFSPFLIHQFGWPSVFYSFGSLGTVWLTLWLTKAESSPLEDPTLLPEERKLIADNCASKEPVKSIPWRLILSKPPVWALISCHFCHNWGTFILLTWMPTYYHQVLKFNLMESGLLSVFPWMTMAISANAGGWIAATLVSRGFSVTNVRKIMQTIGFLGPAFFLTQLKHIDSPTMAVLCMACSQGTDAFSQSGLYSNHQDIAPRYSGVLLGLSNTAGVLAGVLGTAATGHILQHGSWDDVFTISVGLYLVGTVIWNLFSTGEKIID
B3: enzyme (Candida albicans, UniProt A0A1D8PHX1); chain MISIIQNGISQLSSVSGLDEANLKILICTLLSFPFGIIFKRLPDHDYTLKNIYNVAVSCFYVFGICDLRFGISTLLISATGSYFITRYVRTKSMPWINFLFLMIHMAYSHFHLQFFKEYDPKSIDITGAQMILVMKLSAFGWNIHDGKQPRSTLNDFNKARAITKHPNVLPYIGYVFFYASLLTGPAFDYADYDKFIHGTLFDDVPQDKRPGKNKRRIPRSGVQAFKKFSLGFFWAFLLLQSDKFVTMEYMFSPEFVQYHGLFYRIIYMWILGFTFRLKYYTIWTIAEGACILCGIGYNGVDPETGEFKWNRVQNIDPWSFETGQNVHACLEAWNQNTNIWLKNYVYLRVAKPGKKPGFKSTIFTFTTSAFWHGTRPGYYLTFVVGALMQTVGKYYRRNFRPIFLEADGKTPKPTKIVYDFVCWVNTQLAFGFFVQPFVILGFTKSLECWATVYYWLLWVIAISFFAFSGPFAKSVSKFFKSLQPSYREQQRKSREDKYKLNNEEASIVEQAVGAKLGQDYDIPALGLPPFDVFTDFDQTEVDHDIQHLRKAWTSFRGRRGSITENDFDGLKDAYNNFTNEINDIFNTKKEEFKKEKLNKQN
B4: CYP2C19 (Homo sapiens, UniProt P33261); chain MDPFVVLVLCLSCLLLLSIWRQSSGRGKLPPGPTPLPVIGNILQIDIKDVSKSLTNLSKIYGPVFTLYFGLERMVVLHGYEVVKEALIDLGEEFSGRGHFPLAERANRGFGIVFSNGKRWKEIRRFSLMTLRNFGMGKRSIEDRVQEEARCLVEELRKTKASPCDPTFILGCAPCNVICSIIFQKRFDYKDQQFLNLMEKLNENIRIVSTPWIQICNNFPTIIDYFPGTHNKLLKNLAFMESDILEKVKEHQESMDINNPRDFIDCFLIKMEKEKQNQQSEFTIENLVITAADLLGAGTETTSTTLRYALLLLLKHPEVTAKVQEEIERVIGRNRSPCMQDRGHMPYTDAVVHEVQRYIDLIPTSLPHAVTCDVKFRNYLIPKGTTILTSLTSVLHDNKEFPNPEMFDPRHFLDEGGNFKKSNYFMPFSAGKRICVGEGLARMELFLFLTFILQNFNLKSLIDPKDLDTTPVVNGFASVPPFYQLCFIPV
B5: UGT3A2 Y74N (Homo sapiens, UniProt Q3SY77); chain AKILTISTVGGSHYLLMDRVSQILQDHGHNVTMLNHKRGPFMPDFKKEEKSNQVISWLAPEDHQREFKKSFDFFLEETLGGRGKFENLLNVLEYLALQCSHFLNRKDIMDSLKNENFDMVIVETFDYCPFLIAEKLGKPFVAILSTSFGSLEFGLPIPLSYVPVFRSLLTDHMDFWGRVKNFLMFFSFCRRQQHMQSTFDNTIKEHFTEGSRPVLSHLLLKAELWFINSDFAFDFARPLLPNTVYVGGLMEKPIKPVPQDLENFIAKFGDSGFVLVTLGSMVNTCQNPEIFKEMNNAFAHLPQGVIWKCQCSHWPKDVHLAANVKIVDWLPQSDLLAHPSIRLFVTHGGQNSIMEAIQHGVPMVGIPLFGDQPENMVRVEAKKFGVSIQLKKLKAETLALKMKQIMEDKRYKSAAVAASVILRSHPLSPTQRLVGWIDHVLQTGGATHLKPYVFQQPWHEQYLLDVFVFLLGLTLGTLWLCGKLLGMAVWWLRGARKVKET
B6: Comt (Mus musculus, UniProt O88587); chain MLLAAVSLGLLLLAFLLLLRHLGWGLVAIGWFEFVQQPVHNLLMGGTKEQRILRHVQQHAKPGDPQSVLEAIDTYCSEKEWAMNVGDAKGQIMDAVIREYRPSLVLELGAYCGYSAVRMARLLPPGARLLTMEINPDYAAITQQMLDFAGLQDKVSILIGASQDLIPQLKKKYDVDTLDMVFLDHWKDRYLPDTLLLEECGLLRKGTVLLADNVIVPGTPDFLAYVRGSSSFECTHYSSYLEYMKVVDGLEKAVYQGPGSSPVKS
B7: enzyme S124T (Arabidopsis thaliana, UniProt O82390); chain MNARALLCSSNIHSLYTSNRPPEKTSSSRSLRNLKPSPKSLRVWIYPRNRSSVFRVLVRSSDKSESSNSYYVEGDKVSGNNDVVSDSPSSIVLPWWEEFPKRWVIVLLCFSAFLLCNMDRVNMTIAILPMSAEYGWNPATVGLIQSSFFWGYLLTQIAGGIWADTVGGKRVLGFGVIWWSIATILTPVAAKLGLPYLLVVRAFMGVGEGVAMPAMNNILSKWVPVQERSRSLALVYSGMYLGSVTGLAFSPFLIHQFGWPSVFYSFGSLGTVWLTLWLTKAESSPLEDPTLLPEERKLIADNCASKEPVKSIPWRLILSKPPVWALISCHFCHNWGTFILLTWMPTYYHQVLKFNLMESGLLSVFPWMTMAISANAGGWIADTLVSRGFSVTNVRKIMQTIGFLGPAFFLTQLKHIDSPTMAVLCMACSQGTDAFSQSGLYSNHQDIAPRYSGVLLGLSNTAGVLAGVLGTAATGHILQHGSWDDVFTISVGLYLVGTVIWNLFSTGEKIID
B8: UGT1A9 (Homo sapiens, UniProt O60656); chain GKLLVVPMDGSHWFTMRSVVEKLILRGHEVVVVMPEVSWQLGRSLNCTVKTYSTSYTLEDLDREFKAFAHAQWKAQVRSIYSLLMGSYNDIFDLFFSNCRSLFKDKKLVEYLKESSFDAVFLDPFDNCGLIVAKYFSLPSVVFARGILCHYLEEGAQCPAPLSYVPRILLGFSDAMTFKERVRNHIMHLEEHLLCHRFFKNALEIASEILQTPVTEYDLYSHTSIWLLRTDFVLDYPKPVMPNMIFIGGINCHQGKPLPMEFEAYINASGEHGIVVFSLGSMVSEIPEKKAMAIADALGKIPQTVLWRYTGTRPSNLANNTILVKWLPQNDLLGHPMTRAFITHAGSHGVYESICNGVPMVMMPLFGDQMDNAKRMETKGAGVTLNVLEMTSEDLENALKAVINDKSYKENIMRLSSLHKDRPVEPLDLAVFWVEFVMRHKGAPHLRPAAHDLTWYQYHSLDVIGFLLAVVLTVAFITFKCCAYGYRKCLGKKGRVKKAHKSKTH
B9: FMO3 N61S (Homo sapiens, UniProt P31513); chain GKKVAIIGAGVSGLASIRSCLEEGLEPTCFEKSNDIGGLWKFSDHAEEGRASIYKSVFSSSSKEMMCFPDFPFPDDFPNFMHNSKIQEYIIAFAKEKNLLKYIQFKTFVSSVNKHPDFATTGQWDVTTERDGKKESAVFDAVMVCSGHHVYPNLPKESFPGLNHFKGKCFHSRDYKEPGVFNGKRVLVVGLGNSGCDIATELSRTAEQVMISSRSGSWVMSRVWDNGYPWDMLLVTRFGTFLKNNLPTAISDWLYVKQMNARFKHENYGLMPLNGVLRKEPVFNDELPASILCGIVSVKPNVKEFTETSAIFEDGTIFEGIDCVIFATGYSFAYPFLDESIIKSRNNEIILFKGVFPPLLEKSTIAVIGFVQSLGAAIPTVDLQSRWAAQVIKGTCTLPSMEDMMNDINEKMEKKRKWFGKSETIQTDYIVYMDELSSFIGAKPNIPWLFLTDPKLAMEVYFGPCSPYQFRLVGPGQWPGARNAILTQWDRSLKPMQTRVVGRLQKPCFFFHWLKLFAIPILLIAVFLVLT

UGT1A8 (Homo sapiens, UniProt Q9HAW9) — Vmax/Km (COc1cc2c(cc1CC=C(C)C)C(=O)C[C@@H](c1ccc(O)cc1)O2; pH 7.4, 37 °C): 109 µL/min/mg
B1 (FMO1 I303V) — Vmax/Km (CN1CCC[C@H]1c1cccnc1; HEK293 microsomes; 37 °C, not purified, with: NADPH regenerating system): 0.0045 µL/min/mg
B2 (enzyme D382A) — Vmax/Km (O=P(O)(O)O; pH 6.5, 25 °C, apparent, not purified): 46.7 µL/min/mg
B3 (enzyme) — Vmax/Km (CCCCCCCC/C=C\CCCCCCCC(=O)SCCNC(=O)CCNC(=O)[C@H](O)C(C)(C)COP(=O)(O)OP(=O)(O)OC[C@H]1O[C@@H](n2cnc3c(N)ncnc32)[C@H](O)[C@@H]1OP(=O)(O)O; pH 7.4, 37 °C, apparent, not purified): 1080 µL/min/mg
B4 (CYP2C19) — Vmax/Km (CN1C(=O)CC[C@H]1c1cccnc1; microsomes; pH 6.7, cotinine to COX, not purified): 0.042 µL/min/mg
B5 (UGT3A2 Y74N) — Vmax/Km (O=c1ccn([C@@H]2O[C@H](CO[P@@](=O)(O)O[P@@](=O)(O)O[C@H]3O[C@H](CO)[C@@H](O)[C@H](O)[C@H]3O)[C@@H](O)[C@H]2O)c(=O)[nH]1; pH 7.4, 37 °C, not purified, with: 1-OH-pyrene 16 µM, MgCl2 10 mM, alamethicin): 0.013 µL/min/mg
B6 (Comt) — Vmax/Km (O=c1oc2c(O)c(O)ccc2cc1-c1nc2ccccc2s1; MLS9; pH 7.4, 37 °C): 523 µL/min/mg
B7 (enzyme S124T) — Vmax/Km (O=P(O)(O)O; pH 6.5, 25 °C, apparent, not purified): 40 µL/min/mg
B8 (UGT1A9) — Vmax/Km (O=c1c(O)c(-c2ccc(O)c(O)c2)oc2cc(O)ccc12; pH 7.4, 37 °C): 3090 µL/min/mg and 3520 µL/min/mg and 2300 µL/min/mg
B9 (FMO3 N61S) — Vmax/Km (CN1CCC[C@H]1c1cccnc1; HEK293 microsomes; 37 °C, not purified, with: NADPH regenerating system): 0.0039 µL/min/mg

A few entries again:
B3 (enzyme) — Vmax/Km (CCCCCCCC/C=C\CCCCCCCC(=O)SCCNC(=O)CCNC(=O)[C@H](O)C(C)(C)COP(=O)(O)OP(=O)(O)OC[C@H]1O[C@@H](n2cnc3c(N)ncnc32)[C@H](O)[C@@H]1OP(=O)(O)O; pH 7.4, 37 °C, apparent, not purified): 1080 µL/min/mg
